Experimental data of several laboratories.
Lines come from different studies, so protocols differ.

Compound | system | setting | concentration
O=c1cc2n(cc1O)CCN(Cc1ccccc1)C2 | rat, plasma | oral, 100 mg/kg, 4 h, unbound | 5450 nM
Cc1cc(Oc2cnc(C)nc2)cc(C(=O)Nc2ccc(F)cn2)n1 | male Sprague-Dawley rat, brain | oral, 10 mg/kg, 1 h, unbound | 142 nM
O=c1cc(-c2ccccc2)oc2c(O)c(O)ccc12 | male CD-1 mouse, plasma | oral, 50 mg/kg, 8 h | 5 ng/mL
O=c1cc2n(cc1O)CCN(Cc1ccccc1Cl)C2 | rat, plasma | oral, 100 mg/kg, 4 h, unbound | 751 nM
N[C@@H](CC(=O)O)Cn1nnc(-c2ccc(Oc3ncc(Cl)cc3F)cc2)n1 | human, plasma | 20 mg single dose, 24 h | 1.2 ng/mL
Nc1nc2c(ccc3ccccc32)s1 | mouse, plasma | intraperitoneal, 10 mg/kg, 2 h | 5500 nM
Cc1cccc(C)c1CN1CCn2cc(O)c(=O)cc2C1 | rat, brain | oral, 100 mg/kg, 4 h, unbound | 16 nM
CCNC(=O)c1nn(-c2ccc(Cl)cc2)c(=O)c2c(N)scc12 | female mouse, brain | intraperitoneal, 5 mg/kg, 1 h, single dose | > 2000 nM
O=c1cc2n(cc1O)CCN(Cc1ccc(Cl)cc1Cl)C2 | rat, plasma | oral, 100 mg/kg, 4 h, unbound | 290 nM
S=C(NCCCc1c[nH]cn1)NCCCN(Cc1ccc(Cl)c(Cl)c1)c1ccc(Br)cn1 | male C57BL/6 mouse, plasma | intraperitoneal, 30 mg/kg, 8 h | 754 ng/mL
CSc1cc(C)nc(SC)c1NC(=O)CN1CCN(CCSc2nc3ccccc3[nH]2)CC1 | mouse Crl:CD1 (ICR) female, cerebrum | intranasal repeated, 162 µg in 7 N HCl, 15 min, 7 days dosing | 44 ng/g
Nc1scc2c(C(=O)NC3CC3)nn(-c3ccc(Cl)cc3)c(=O)c12 | female mouse, brain | intraperitoneal, 5 mg/kg, 1 h, single dose | > 2000 nM
CO[C@H]1C[C@@H]2CC[C@@H](C)[C@@](O)(O2)C(=O)C(=O)N2CCCC[C@H]2C(=O)O[C@H]([C@H](C)C[C@@H]2CC[C@@H](OCCO)[C@H](OC)C2)CC(=O)[C@H](C)/C=C(\C)[C@@H](O)[C@@H](OC)C(=O)[C@H](C)C[C@H](C)/C=C/C=C/C=C/1C | healthy adult human, blood | 0.75 mg single dose, 12 h, geometric mean, together with: ritonavir-containing 3D regimen | 8.26 ng/mL

Repeated from above:
Compound | system | setting | concentration
S=C(NCCCc1c[nH]cn1)NCCCN(Cc1ccc(Cl)c(Cl)c1)c1ccc(Br)cn1 | male C57BL/6 mouse, plasma | intraperitoneal, 30 mg/kg, 8 h | 754 ng/mL
